Results collected from several papers.
Protocols differ between the studies behind these lines. ± gives the spread as reported.

SMILES	test	test system	conditions	terminal half-life [h]
Cn1c(=O)oc2ccc(-c3ccc(C[C@@H](C#N)NC(=O)[C@@H]4CNCCCO4)cc3)cc21		healthy male human, plasma	oral, repeated once daily	26 to 34
C=CC(=O)Nc1cc(Nc2ncc(C(=O)OC(C)C)c(-c3cn(C)c4ccccc34)n2)c(OC)cc1N(C)CCN(C)C		human, fasted	oral, 120 mg single dose, geometric mean	18.3
CCOc1c([C@H](C)n2nc(C)c3c(N)ncnc32)cc(Cl)c(F)c1[C@@H]1CNC(=O)C1		healthy fasted humans, plasma	oral, 20 mg	14.7 ± 3.6
O=C(Nc1nc2cccc(-c3ccc(CN4CCS(=O)(=O)CC4)cc3)n2n1)C1CC1		human male	oral, 50 mg twice daily, steady state, mean	5.75
Cc1cc(Nc2cc(N3CCN(C)CC3)nc(/C=C/c3ccccc3)n2)n[nH]1		human patients, plasma	oral, dose not given, multiple doses	44.9 to 53.1
CC[C@H](C)[C@H](NC(=O)[C@H](CC(C)C)NC(=O)[C@H](Cc1c[nH]c2ccccc12)NC(=O)[C@H](C)NC(=O)[C@@H](NC(=O)[C@H](Cc1ccccc1)NC(=O)[C@H](CC(=O)O)NC(=O)[C@H](CCCNC(=N)N)NC(=O)[C@H](C)NC(=O)[C@H](C)NC(=O)[C@H](CC(C)C)NC(=O)[C@H](C)NC(=O)[C@H](CC(=O)O)NC(=O)[C@H](CC(C)C)NC(=O)[C@@H](NC(=O)[C@@H](NC(=O)[C@H](C)NC(=O)[C@H](CC(C)C)NC(=O)[C@H](CCC(=O)O)NC(=O)[C@H](CO)NC(=O)[C@H](CO)NC(=O)[C@H](Cc1ccccc1)NC(=O)[C@@H](NC(=O)CNC(=O)[C@H](CCC(=O)O)NC(=O)CNC(=O)[C@@H](N)Cc1cnc[nH]1)[C@@H](C)O)[C@@H](C)O)[C@@H](C)CC)[C@@H](C)CC)C(=O)N[C@@H](C)C(=O)N[C@H](C(=O)N[C@@H](CCCCN)C(=O)N[C@H](C(=O)N[C@H](C(=O)N[C@@H](CC(=O)O)C(=O)N[C@@H](CCCCN)C(=O)N[C@@H](CCCCN)C(=O)N[C@@H](CCCCN)C(=O)N[C@@H](CCCCN)C(=O)N[C@@H](CCCCN)C(=O)N[C@@H](CCCCN)C(N)=O)[C@@H](C)O)[C@@H](C)CC)[C@@H](C)O	immunoaffinity LC-MS/MS	healthy human subjects, plasma	intravenous infusion, 1 mg single dose, infused over 15 min	11.7
C=C(C)[C@@H]1CC[C@]2(NCCN3CCS(=O)(=O)CC3)CC[C@]3(C)[C@H](CC[C@@H]4[C@@]5(C)CC=C(C6=CC[C@@](CF)(C(=O)O)CC6)C(C)(C)[C@@H]5CC[C@]43C)[C@@H]12		human	oral, 50 mg once daily, day 14, multiple ascending dose	24.8
CN[C@H]1CN(c2ccc3c(=O)c(C(=O)O)cn(-c4nccs4)c3n2)C[C@@H]1OC		human patients, plasma	intravenous, mean, about 10 min infusion	~25
CC[C@@H]1C(=O)N(C)c2cnc(Nc3ccc(C(=O)N[C@H]4CC[C@H](N5CCN(CC6CC6)CC5)CC4)cc3OC)nc2N1C(C)C		human	intravenous infusion, 2 h infusion	~135
CN1CCN(c2cccc3c2CCN(C(=O)/C=C/c2c(-n4cnnn4)ccc(Cl)c2F)[C@@H]3C(=O)Nc2ccc(C(=O)O)cc2)C(=O)C1		human	intravenous infusion, 1 to 20 mg/h, 5 day infusion	6.22 to 8.65
CC(C)[C@](O)(c1ccc2cc(OC(F)F)c(OC(F)F)cc2c1)c1c[nH]nn1	noncompartmental analysis	human patients, plasma	oral, dose not given	6.6

Excerpt of the above:
SMILES	test	test system	conditions	terminal half-life [h]
Cn1c(=O)oc2ccc(-c3ccc(C[C@@H](C#N)NC(=O)[C@@H]4CNCCCO4)cc3)cc21		healthy male human, plasma	oral, repeated once daily	26 to 34
